Results collected from several papers.
Every numbered part comes from another study and shows a few of its results, in no order.

Set 1 — technique: protein binding microarray; form: double-stranded DNA, one strand shown; matrix: in vitro; tested at: not given; baseline: not given; reading: higher = stronger binding
Target: Histone acetyltransferase KAT6A, winged helix 1, GST fusion (KAT6A, Homo sapiens, UniProt Q92794, residues 1-85)
Notes: 8-mer, flanks averaged, mean of 2 arrays, mostly near background
Construct (chain): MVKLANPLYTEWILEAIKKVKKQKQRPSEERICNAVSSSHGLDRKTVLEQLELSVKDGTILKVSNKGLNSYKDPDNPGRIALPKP
| Strand | E-score |
| --- | --- |
| GGAGGCAC | 0.0409 |
| GATCACTA | 0.0281 |
| ACTCCATA | -0.193 |
| CCGGTGAA | 0.215 |
| GAAATGAA | -0.17 |
| GTCTGTCA | -0.11 |
| GACTAACC | -0.16 |
| AAGTACTT | 0.0361 |
| GTTTCACA | -0.0903 |
| AGACCAAG | -0.0682 |
| GTGCACGA | -0.194 |
| CTACCTGA | -0.173 |
| GCGTCCCC | 0.145 |
| GATTGCCA | -0.13 |
| ACGTGGCA | -0.247 |
| CAGCAAGG | -0.126 |
| CTAAAACA | -0.0868 |
| AAATTTCG | -0.036 |
| AGTCCAGA | -0.32 |
| GTAAAACA | -0.0872 |

Set 2 — technique: universal PBM; form: double-stranded DNA, one strand shown; matrix: in vitro; tested at: 600 nM; reading: higher = stronger binding
Target: Sal-like protein 4, full length isoform A (SALL4, Homo sapiens, UniProt Q9UJQ4, residues 1-1053)
Sequence of UniProt Q9UJQ4 (whole entry, looked up): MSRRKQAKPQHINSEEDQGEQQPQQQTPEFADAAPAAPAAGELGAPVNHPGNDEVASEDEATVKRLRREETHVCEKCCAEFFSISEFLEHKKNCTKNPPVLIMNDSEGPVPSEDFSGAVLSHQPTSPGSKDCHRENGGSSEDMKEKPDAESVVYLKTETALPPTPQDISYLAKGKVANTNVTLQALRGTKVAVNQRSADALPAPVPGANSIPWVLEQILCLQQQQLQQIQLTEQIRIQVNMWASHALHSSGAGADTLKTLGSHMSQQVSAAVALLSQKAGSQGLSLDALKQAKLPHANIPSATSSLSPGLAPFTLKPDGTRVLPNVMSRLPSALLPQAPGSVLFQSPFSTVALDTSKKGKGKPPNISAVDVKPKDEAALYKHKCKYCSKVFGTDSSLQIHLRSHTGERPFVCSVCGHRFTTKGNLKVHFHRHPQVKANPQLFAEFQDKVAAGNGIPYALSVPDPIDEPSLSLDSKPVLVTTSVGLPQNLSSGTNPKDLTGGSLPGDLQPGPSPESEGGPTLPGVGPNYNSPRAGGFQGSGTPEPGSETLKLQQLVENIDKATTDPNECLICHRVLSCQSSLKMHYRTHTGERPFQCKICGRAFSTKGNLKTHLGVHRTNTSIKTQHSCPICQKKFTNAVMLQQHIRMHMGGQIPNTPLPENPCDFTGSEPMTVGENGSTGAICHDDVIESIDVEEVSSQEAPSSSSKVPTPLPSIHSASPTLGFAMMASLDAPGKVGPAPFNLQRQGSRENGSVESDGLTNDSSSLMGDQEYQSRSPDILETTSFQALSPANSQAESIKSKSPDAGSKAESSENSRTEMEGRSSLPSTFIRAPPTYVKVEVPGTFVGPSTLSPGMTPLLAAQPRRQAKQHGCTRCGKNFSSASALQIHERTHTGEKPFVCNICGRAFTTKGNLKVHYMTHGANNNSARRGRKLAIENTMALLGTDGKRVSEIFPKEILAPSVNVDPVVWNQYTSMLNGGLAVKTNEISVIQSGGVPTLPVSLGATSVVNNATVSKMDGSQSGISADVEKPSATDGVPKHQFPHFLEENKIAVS
Notes: 8-mer, flanks averaged, mean of replicates
| Strand | E-score |
| --- | --- |
| GAAGCATA | 0.206 |
| ATTACTCC | 0.0668 |
| AGGTCACT | -0.187 |
| AATTAGTA | 0.38 |
| GCCCTAGA | -0.251 |
| ACGTGCTG | -0.105 |
| ACCTCAGT | 0.0615 |
| ACCACGAT | 0.038 |
| CGAACTGA | -0.0788 |
| ATTATGCC | 0.272 |
| GGGTTGTA | 0.0167 |
| ATCAGCAC | 0.0558 |
| CCAGCGTC | -0.367 |
| CGAATCGC | -0.24 |
| ATGGCTAA | 0.147 |
| CCAGCACA | -0.0636 |
| CAGTTGAA | -0.0615 |
| CGACTCAA | -0.0192 |
| CAAGTGGC | -0.0167 |
| ACAGGGCA | -0.0219 |
| CGAGGTCA | -0.196 |
| GACTGCCA | -0.117 |
| CGCGGAGC | -0.378 |
| AAAAAGGA | 0.00852 |
| GAGCAGGA | -0.0316 |

Set 3 — technique: protein-binding microarray; form: double-stranded DNA, one strand shown; matrix: in vitro; tested at: 0.8 µM; notes: whole 60-bp probe, no competitor; reading: higher = stronger binding; shared flanks, not repeated: … GTCTTGATTCGCTTGACGCTGCTG
Target: Centromere-binding protein 1, full length, N-terminal tag (CBF1, Saccharomyces cerevisiae, UniProt P17106, residues 1-351)
Sequence of UniProt P17106 (whole entry, looked up): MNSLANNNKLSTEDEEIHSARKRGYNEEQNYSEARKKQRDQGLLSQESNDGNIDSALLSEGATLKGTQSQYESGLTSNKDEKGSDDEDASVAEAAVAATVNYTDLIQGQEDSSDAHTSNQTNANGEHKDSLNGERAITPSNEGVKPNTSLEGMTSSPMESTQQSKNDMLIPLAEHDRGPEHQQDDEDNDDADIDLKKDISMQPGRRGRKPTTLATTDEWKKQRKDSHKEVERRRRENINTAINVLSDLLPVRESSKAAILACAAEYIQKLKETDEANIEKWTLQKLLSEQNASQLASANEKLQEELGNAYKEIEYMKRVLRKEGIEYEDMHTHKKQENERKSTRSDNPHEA
| Strand | fluorescence intensity [a.u.] |
| --- | --- |
| CTACCAGATATTTACCACGCTAGATTTGCATAGTTC | 509 |
| GAATGAATCAATAAGAAGGTGATCAGGTAGTTCTAG | 507 |
| GAACACACACAGGCGCACACGAGAACAGATGAGTAG | 608 |
| CTACAGACATTCTGTCACCTGGTGAAAAACGACTTC | 1020 |
| GAAAGGGTAACATATTATCACGTGCAGCCCAGGTAG | 10100 |
| CTAATATAGATGCAGGTGATTACTAGTGGGGCATTC | 1040 |
| GAATGTTTATTATACCACGTTAAAAATCATTTCTAG | 593 |
| GAATATCTTTTTATGCACATGTAATTCTTCCCATAG | 650 |
| GAATTATAATTCGCTCTCATGATCACCACATCTTAG | 667 |
| GAATAAATGGATAGAAGACGTTAAAAATGAAAGTAG | 545 |
| CTAAGCGCTGCGTAAAACATCAGAGACGTATGTTTC | 484 |
| CCTAACTACTATATTCACGTAAAATAGCTTCGTACA | 515 |
| GAACCATACCATCCTCACGTTAATGAATCATTTTAG | 567 |
| CTAAAGCACGGCGGACGTGTCACCCGGACCGAATTC | 610 |
| GAAGGGACTCCTCGCTTCACCAGATCTTATGTATAG | 535 |
| CTAACCAAGCAAGAACACGTCACCGCATTAATATTC | 537 |
| GAAAGATGTGGCAGTGACACCAATTGCAAGAGATAG | 622 |
| TGTACGAAGCTATATCATGCGGATATAGTAGTTAGG | 571 |
| GAAAAAAAAAAAAAACATGTGGTGATGAAAACGTAG | 863 |
| GAATAATTCAGCCGTCACGCATGAACAGAAGGATAG | 652 |
| CTATAGTCACGTGGTCATCACGTGAGCATAATATTC | 41700 |
| GAATGCAGTCGCAAGCACGTGCATGCGATTTTGTAG | 13100 |
| CTAATGTCTGCATACGTGATTACTACATATATATTC | 628 |

Set 4 — technique: RNA Bind-n-Seq; form: RNA; matrix: in vitro; tested at: 200 nM; notes: whole 134-nt RNA, ends assumed; with: 150 mM KCl; baseline: input library; reading: higher = stronger binding
Target: Ras GTPase-activating protein-binding protein 1, full length (G3BP1, Homo sapiens, UniProt Q13283)
Sequence of UniProt Q13283 (whole entry, looked up): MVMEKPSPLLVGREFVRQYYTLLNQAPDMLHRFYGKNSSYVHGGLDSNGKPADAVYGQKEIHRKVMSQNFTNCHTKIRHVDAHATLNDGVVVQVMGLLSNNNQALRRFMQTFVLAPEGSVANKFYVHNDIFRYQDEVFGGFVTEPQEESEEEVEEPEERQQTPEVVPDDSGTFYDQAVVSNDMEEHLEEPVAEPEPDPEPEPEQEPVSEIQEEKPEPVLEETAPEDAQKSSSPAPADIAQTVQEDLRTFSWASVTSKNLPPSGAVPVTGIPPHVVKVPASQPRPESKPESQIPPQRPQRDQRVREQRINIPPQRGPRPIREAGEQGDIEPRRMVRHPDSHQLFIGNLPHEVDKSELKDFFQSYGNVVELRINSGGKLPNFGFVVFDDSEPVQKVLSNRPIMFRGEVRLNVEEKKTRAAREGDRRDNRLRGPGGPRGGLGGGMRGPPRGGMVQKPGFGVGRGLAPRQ
Shared flanks, not repeated: GGGAGUUCUACAGUCCGACGAUC … UGGAAUUCUCGGGUGUCAAGG
| Strand | log2 enrichment |
| --- | --- |
| GUCCUGUGCUACACAUCGUAUGUACCGAAUCGGGGAAAGGGGAAAAAGGGGUUUGGGGAAAGUAUUAUGUUACGCCGUUCGGAUCUGCAC | 0.492 |
| UGGAGCUACAGAUGGUGUCCUUCCUGCCAGGUGUGUGUGGAGGCCAGUAUGAAGCUGAAAAAGCAGGUGACAGUGUGUGGGGCUGCCAUC | -0.199 |
| AGUCCUGUGCUACACAUCGUAUGUACCGAAUCGGGAAAAAGGGUUUGGGUUUUUGGGAAAGUAUUAUGUUACGCCGUUCGGAUCUGCACU | -0.385 |
| AAGUCCUGUGCUACACAUCGUAUGUACCGAAUCGGAAAAAGGAAAAAGGAAAAAGGAAAGUAUUAUGUUACGCCGUUCGGAUCUGCACUU | -1.23 |
| UGCUGUGCAGCGGCAUCGGCCCACUGUGGUGGAAUGUCUACGGGAAACUGAUGCCUCCCUCAGCCGGUGAGCAGUGAUAGAGGGGACAGG | -2.14 |
| UUGAGAAAAGCACCCAUAAUUUGCUACUUGAGGAUUUUAUUCCCUGGAUUCUCUGGAUGCUCAUUGCAUGAAAAGUGGAAAAGUUUAGAU | -0.279 |
| AAGUCCUGUGCUACACAUCGUAUGUACCGAAUCGGGGUGGGGAAAAAGGGGAGGGGAAAGUAUUAUGUUACGCCGUUCGGAUCUGCACUU | 0.651 |
| CUGUGCUACACAUCGUAUGUACCGAAUCGUGUGUGUGUGUGUGUGUGUGUGUGUGUGUGUGUAAAGUAUUAUGUUACGCCGUUCGGAUCU | 0.767 |
| UAACUUUAGAGGAGGAUCUGAUGGAUAUGGCAGUGGACGUGGAUUUGGCGAUGGCUAUAAUGGGUAUGGAGGAGGACCUGGAGGUGGCAA | 0.239 |
| GUCCUGUGCUACACAUCGUAUGUACCGAAUCGGGGUUUUUGGUUUUUGGUUUUUGGGGAAAGUAUUAUGUUACGCCGUUCGGAUCUGCAC | -0.787 |
| UCCCGACAUCUGUGGCCCUGGCACCAAGAAGGUUCAUGUCAUCUUCAACUACAAGGGCAAGAACGUGCUGAUCAACAAGGACAUCCGUUG | 0.202 |
| UGUGUGCAUUCCCUGCGCCAAGGGCUUCCCCAGCUCUGAGCAGCUCAAUGCGCACGUGGAGACUCACACGGAGGAAGAGCUGUUCAUCAA | -1.6 |
| CUCAAGUCCUGUGCUACACAUCGUAUGUACCGAAUCGGUGGUGGAAAAAAAGGAAAGUAUUAUGUUACGCCGUUCGGAUCUGCACUUCCA | -0.313 |
| AAGUCCUGUGCUACACAUCGUAUGUACCGAAUCGGGGUUUGGGGAGGGGUUUGGGGAAAGUAUUAUGUUACGCCGUUCGGAUCUGCACUU | 0.383 |

Set 5 — technique: protein-binding microarray; form: double-stranded DNA, one strand shown; matrix: in vitro; tested at: 250 nM; notes: 60-bp whole probe; with: salmon DNA 0.4 mg/ml; baseline: random background probes; reading: higher = stronger binding; shared flanks, not repeated: GCCTAGCAC … GTCTTGATTCGCTTGACGCTGCTG
Target: Interferon regulatory factor 7, full length, phosphomimetic (IRF7, Homo sapiens, UniProt Q92985, residues 1-503, S101K/S471D/S472D/S475D/S476D/S477D/S483D/S484D/S487D)
Residues (chain): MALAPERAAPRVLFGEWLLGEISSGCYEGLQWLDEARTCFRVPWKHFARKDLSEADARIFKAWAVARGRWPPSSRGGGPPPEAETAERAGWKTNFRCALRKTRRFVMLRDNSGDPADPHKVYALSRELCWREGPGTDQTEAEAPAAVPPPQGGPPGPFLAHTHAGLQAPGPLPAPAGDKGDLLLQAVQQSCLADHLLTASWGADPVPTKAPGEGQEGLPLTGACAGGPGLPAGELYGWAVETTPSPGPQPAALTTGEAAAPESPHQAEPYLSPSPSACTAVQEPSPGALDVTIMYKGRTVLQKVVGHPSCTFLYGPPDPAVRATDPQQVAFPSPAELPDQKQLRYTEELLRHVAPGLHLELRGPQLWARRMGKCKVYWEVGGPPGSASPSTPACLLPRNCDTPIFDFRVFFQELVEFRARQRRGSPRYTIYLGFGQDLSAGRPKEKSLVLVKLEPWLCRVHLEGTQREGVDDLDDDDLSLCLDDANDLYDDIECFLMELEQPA
| Strand | log fluorescence [z-score] |
| --- | --- |
| GACGGTATAGGTATCGGGACGTGCTAG | -0.371 |
| TCAGGTTTACCAGATCATACTGTGCTA | -0.22 |
| TTAGATCTAAGTATCGATTAGTGCTAG | 1.34 |
| GACGGTTTCCATCTCCTGACGTGCTAG | 4.2 |
| TACGGACTGGGTCTCGGGACGTGCTAG | -0.296 |
| GACGAACTGAGACTGGAGACGTGCTAG | -0.034 |
| GACGATTTCGAGTATCGAGACGTGCTA | 0.869 |
| TTAGATATCGGGACTGGACTAGTGCTA | -0.204 |
| TTTTTGTTGTTTTTTGGTTTGTGCTAG | 1.67 |
| GACGATATTAGTATCGAGACGTGCTAG | 0.497 |
| AGGAAAGTGTTTCTCAACCAGTGCTAG | -0.0982 |
| GGGTGGGAGCCGAAGACGCCGTGCTAG | -1.08 |
| CATTTTTTTTTTCTACTTCTGTGCTAG | 1.52 |
| TGAGATTTCAGACTGGATTAGTGCTAG | -0.142 |
| TTAGATCTCAGACTCGATTAGTGCTAG | 1.11 |
| GACGATATCAGTTTCGAGGCGTGCTAG | 2.4 |
| TGGTATTTTTTTCTAATTGAGTGCTAG | 1.1 |
| GACGGTATCGACTTTCGGGGCGTGCTA | 0.747 |
| TAATATCTAAGATTCTAGCCGTGCTAG | -0.101 |
| GACGAACAGAGACTGGAGACGTGCTAG | 0.281 |
| GACGATTTCAGTATCGAAACGTGCTAG | 0.959 |
| GACGGTCTCGATATCGGGACGTGCTAG | 2.6 |
| TTACATCTCAGTTTCGATTAGTGCTAG | 8.41 |
| TTAGGTTTCGGTATCGGTGAGTGCTAG | 10.7 |
| GACGGTATCGTGACTGGGGACGTGCTA | -0.333 |

Excerpt of the above (set 1):
| Strand | E-score |
| --- | --- |
| GTCTGTCA | -0.11 |
| CCGGTGAA | 0.215 |
| CAGCAAGG | -0.126 |
| AGTCCAGA | -0.32 |
| GATCACTA | 0.0281 |
| GTGCACGA | -0.194 |
| GAAATGAA | -0.17 |
| AAATTTCG | -0.036 |
| AGACCAAG | -0.0682 |
| GTAAAACA | -0.0872 |
| AAGTACTT | 0.0361 |
